# Results collected from several papers.
# Each numbered part is a random draw from the data of one study; scales do not carry over between parts. Substitutions count along the parent as printed.

# Sample 1 — target: CCNA2, cyclin fold, Cln2 fusion (human); technique: yeast growth competition, sequencing; sample: yeast; notes: strong parent motif; relative to: not given; reading: higher = stronger binding
# Starting sequence: RBL1 docking peptide (human); GSAKRRLFGEDPP
Variant,normalised enrichment score
E10H,5.66
S2F,4.36
L7D,0.054
S2L,4.87
K4H,2.41
L7S,0.0264
A3S,4.38
P12S,6.59
A3M,1.63
G9H,5.52
K4S,2.95
D11W,5.03
E10V,5.07

# Sample 2 — technique: RNA Bind-n-Seq; molecule type: RNA; sample: in vitro; tested at: 365 nM; relative to: no-protein control; reading: higher = stronger binding
# Target: RNA binding protein fox-1 homolog 2, RRM domain, GST-SBP tag (RBFOX2, Homo sapiens, UniProt O43251-10, residues 100-194)
# Notes: natural RNA segment, single round, ends assumed
# Construct (chain): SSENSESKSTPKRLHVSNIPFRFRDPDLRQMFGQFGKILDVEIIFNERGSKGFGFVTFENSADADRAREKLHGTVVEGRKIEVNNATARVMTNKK
Strand,RBNS enrichment (R)
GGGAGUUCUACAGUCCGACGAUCGGCUUUUCUACUCCAGGCAAACCUGCCCCAUCUUGUCGCUUUUAGGACCUCCCACAACCUGGUUCCCCACACAUCCAUAGUUCUGCCUCCCCAGCUUCUCCUCCCCAGUUUGGAAUUCUCGGGUGCCAA,0.808
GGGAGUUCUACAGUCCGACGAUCGUUCUGCCUCUGCCUUGAUACUGCCUCAGGAUUCCCUAUCCCAUACCCUGGGAAAUUUGAGGGACCCCAAAAACUGAGGUCUCCUGCUUUCUCCAUAAUUUGGUCUCCUCUGGAAUUCUCGGGUGCCAA,0.837
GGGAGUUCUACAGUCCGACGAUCCAGGCAUACUCCUGCUUAGGAUAACCAUUUGCUGGUCUUCAUUCAAUUCUUUCUCUCUUUUUAUUACUAAACAGUUUUACAUAACACUGUUUAUUUAAGAAACAUAUCUCUGGAAUUCUCGGGUGCCAA,0.596
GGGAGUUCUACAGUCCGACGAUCUUCUUAAGUUUUUUAUCUCCAGAUCCUAAUUUAUGCCUAUGCAAAAAAUAAAUGACGCCCAAGAGCUUGGGAUGUGGCUUUCAUGUGGCUUUUGCCUAUCACCUAGGGCAUGGAAUUCUCGGGUGCCAA,0.848
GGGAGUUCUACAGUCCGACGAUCACAGCACCUCAUGGGAUCAGAAAAGAGAAAGAUGUUGGCUCUUGUAAUAAAUGCUUUCUACCCUAUAGGUUCUAGGCUAGACAGAGUCGUCAUUUCUGUGUCCUCAAUUUUGGAAUUCUCGGGUGCCAA,0.359
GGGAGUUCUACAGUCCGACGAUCUCUUGUGAUUUUUCUCUGUGAAUCCGUGGGUCUGGCUAGAAGGCCCAAUGCUGUAAAUAUGGGGAUAGUCUGGGUCAGGCCAAUCACUUCCUCUCUCACCCAUUUCGCUUUGGAAUUCUCGGGUGCCAA,0.365
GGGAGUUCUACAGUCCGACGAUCUUAGAUCCCAGGAGUCACAGCAGAGCCUUGCAGUCAUUUCACAUGCGCAGACUCUGGAGAGAGCAAACCUGCCAUGGGCUACAGAUCCCAAUACCUCUGAGGGUCAGAACUGGAAUUCUCGGGUGCCAA,0.269
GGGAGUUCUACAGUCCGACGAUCGACGAGCUAUAGGUCAUACAUGAAUGUCUAGUGAGACAUUCAAAAUUCGUAUAGGGUGCAGAGUAAUUUCUUAUUGUGAGGAACUGUCCAAUGUAUUGCAAGAUGUUCUGUGGAAUUCUCGGGUGCCAA,1.04
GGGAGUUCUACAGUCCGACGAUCCAUGUGUCCUGGAGAGAGAAGGAAGAUUAUCAUCCCUCCAUUCCUGGCCUAUGGCGAGAAAGGCUAUGGGACAGUGAUCCCCCCACAGGCCUCGCUGGUCUUUCACGUCCUGGAAUUCUCGGGUGCCAA,0.189
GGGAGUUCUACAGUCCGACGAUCAAUAAAAUCAGGAGUUUGUACAAAAGUUAAAUGGAACAUUAUAAUUAUUUUAAGUAAUGUUAAUUGAAAAAAUUUUUUCUUUUUGACAAUAUAAAAAACAUUUUAAAUUUUGGAAUUCUCGGGUGCCAA,0.825
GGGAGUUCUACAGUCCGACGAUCCUUAAACUCUUGUCAGUCUGGGCUCAGGGUUCCCAGAGCUCAUUCCCCAGGAAUCUCUAAGACCAGGGCUGGGGCAGUGUCUGUCACUGGCUUGUUUGUUCCCUACCAAUUGGAAUUCUCGGGUGCCAA,0.198
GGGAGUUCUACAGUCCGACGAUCCGGGCAGCAUCGGGCUUCAUAGGUUCGUUGCUCUCCUGAGCUUUUUUGAUUCACUUGCUUUGUUUUCUGUUUUUUUUAAUAGCUAUUAUAAAGAGGUACAAUAAGCAGCUUGGAAUUCUCGGGUGCCAA,0.411

# Sample 3 — technique: RNA Bind-n-Seq; molecule type: RNA; sample: in vitro; tested at: 1 µM; notes: whole 134-nt RNA, ends assumed; together with: 150 mM KCl; relative to: input library; reading: higher = stronger binding
# Target: Ras GTPase-activating protein-binding protein 1, C-terminal RGG region (G3BP1, Homo sapiens, UniProt Q13283)
# Sequence of UniProt Q13283 (whole entry, looked up): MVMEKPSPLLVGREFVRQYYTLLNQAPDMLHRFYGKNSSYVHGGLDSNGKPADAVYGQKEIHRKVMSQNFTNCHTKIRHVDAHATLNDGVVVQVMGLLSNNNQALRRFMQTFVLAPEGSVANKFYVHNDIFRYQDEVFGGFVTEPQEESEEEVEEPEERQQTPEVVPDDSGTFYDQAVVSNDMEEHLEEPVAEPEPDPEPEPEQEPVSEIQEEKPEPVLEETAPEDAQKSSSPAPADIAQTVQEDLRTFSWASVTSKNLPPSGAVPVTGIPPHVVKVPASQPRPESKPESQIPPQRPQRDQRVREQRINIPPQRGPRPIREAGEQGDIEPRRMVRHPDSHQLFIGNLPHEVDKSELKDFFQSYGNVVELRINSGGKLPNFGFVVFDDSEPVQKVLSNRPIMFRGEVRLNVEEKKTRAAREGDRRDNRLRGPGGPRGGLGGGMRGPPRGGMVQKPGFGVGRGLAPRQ
Strand,log2 enrichment
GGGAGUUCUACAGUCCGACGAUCCUCAAGUCCUGUGCUACACAUCGUAUGUACCGAAUCGGGCCGGGCCGGGGCCGGAAAGUAUUAUGUUACGCCGUUCGGAUCUGCACUUCCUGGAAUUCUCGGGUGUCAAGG,-1.45
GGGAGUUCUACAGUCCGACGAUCCUCAAGUCCUGUGCUACACAUCGUAUGUACCGAAUCGGAAGGGAAGGGAAGGGGAAAGUAUUAUGUUACGCCGUUCGGAUCUGCACUUCCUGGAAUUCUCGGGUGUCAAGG,-0.256
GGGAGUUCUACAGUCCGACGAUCUAACUUUAGAGGAGGAUGUGAUGGAUAUGGCAGUGGACGUGGAUUUGGGGAUGGCUAUAAUGGGUAUGGAGGAGGACCUGGAGGUGGCAAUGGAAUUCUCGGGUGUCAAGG,-1.43
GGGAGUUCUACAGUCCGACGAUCCCUCAAGUCCUGUGCUACACAUCGUAUGUACCGAAUCGGGAGGGAGGGAGGGGAAAGUAUUAUGUUACGCCGUUCGGAUCUGCACUUCCAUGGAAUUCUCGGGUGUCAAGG,3.19
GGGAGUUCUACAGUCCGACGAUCGCAGGAAGUAAAAACAAAUGGAAAUGCUUCGGAUAGUGGAAGGGGUGGGGGUUGCUAAGGAAAGGGUGGGAUGGGAGUGGGUAAAGAGUUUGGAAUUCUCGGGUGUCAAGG,0.766
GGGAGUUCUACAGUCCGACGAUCCCUGUGCUACACAUCGUAUGUACCGAAUCGGCCCCCCCGGCCCCCCCGGCCCCCCCGGGGAAAGUAUUAUGUUACGCCGUUCGGAUCUGCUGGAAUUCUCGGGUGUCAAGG,-1.94
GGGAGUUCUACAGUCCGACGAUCAGUCCUGUGCUACACAUCGUAUGUACCGAAUCGGGGUGGGGAAAGGGGUUUUUGGGGAAAGUAUUAUGUUACGCCGUUCGGAUCUGCACUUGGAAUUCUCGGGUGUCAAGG,2.33
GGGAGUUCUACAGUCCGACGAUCGCCGGAAGUAAAAACAAAUGGAAAUGCUUCGGAUAGUGGCAGGGGUGGGGGUUGCUAAGGAAAGGGUGGGAUGGGAGUGGGUAAAGAGUUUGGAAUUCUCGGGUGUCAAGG,1.39
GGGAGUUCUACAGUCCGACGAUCUCCUGUGCUACACAUCGUAUGUACCGAAUCGGGGAGGGGUUUUUGGGGAAAAAAAGGGGAAAGUAUUAUGUUACGCCGUUCGGAUCUGCAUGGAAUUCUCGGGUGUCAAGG,1.03
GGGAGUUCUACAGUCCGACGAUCAGUCCUGUGCUACACAUCGUAUGUACCGAAUCGGGAAAAAGGGAAAAAGGAAAAAGGAAAGUAUUAUGUUACGCCGUUCGGAUCUGCACUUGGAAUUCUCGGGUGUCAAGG,-1.83
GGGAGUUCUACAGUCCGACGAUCUGCUGAAGCUCACACCCGUGGACCACCCAGACUGCCUGCCGCUACAGGAUGCCCUCCGCAUCUCCCAGGACUUCUUUCCGGCAUCAGUGUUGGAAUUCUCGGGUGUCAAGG,-0.222
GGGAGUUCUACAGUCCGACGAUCUGGGAGGUGGAUUUUGUUUAUUUUUUUAGCUCAUUUCCAGGGGUGGGAAUUUUUUUUUAAUAUGUGUCAUGAAUAAAGUUGUUGUUGAAAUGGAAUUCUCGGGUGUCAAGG,3.11
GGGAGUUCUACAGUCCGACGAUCACCAUGCAGGUGGGCAUCUUUGGGAAGUGGGGCAAGGGGGGGAUAGGGCGGGGGGUAACACUUUGGGAACAGGUGGUCCCAGGUCGUUUCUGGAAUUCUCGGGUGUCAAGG,2.18
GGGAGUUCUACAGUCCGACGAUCGCAGGAAGUAAAAACAAAUGGAAAUGCUUCGGAUAGUGGCAGGGGUGGGGGUUGCUAAGGAAAGGGUGGGAUGGGAGUGGGUUAAGAGUUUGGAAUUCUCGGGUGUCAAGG,-0.114

# Sample 4 — technique: Sort-seq; item: YFP reporter; sample: E. coli; notes: PhoQ-PhoP variant library; together with: 10 µM Mg2+; relative to: high Mg2+ state; reading: higher = stronger signaling
# Substance: PhoQ, residues 284 288 289 292 302 303 SMMNNA
target,fold induction
"PhoP, residues 12 14 15 18 19 LFHKL (Escherichia coli, UniProt P23836)",4.91
"PhoP, residues 12 14 15 18 19 QQAYL (Escherichia coli, UniProt P23836)",22.4
"PhoP, residues 12 14 15 18 19 GMGLL (Escherichia coli, UniProt P23836)",6.1

# A few entries again (sample 2):
Strand,RBNS enrichment (R)
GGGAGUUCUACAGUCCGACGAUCUCUUGUGAUUUUUCUCUGUGAAUCCGUGGGUCUGGCUAGAAGGCCCAAUGCUGUAAAUAUGGGGAUAGUCUGGGUCAGGCCAAUCACUUCCUCUCUCACCCAUUUCGCUUUGGAAUUCUCGGGUGCCAA,0.365
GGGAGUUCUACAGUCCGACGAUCCAGGCAUACUCCUGCUUAGGAUAACCAUUUGCUGGUCUUCAUUCAAUUCUUUCUCUCUUUUUAUUACUAAACAGUUUUACAUAACACUGUUUAUUUAAGAAACAUAUCUCUGGAAUUCUCGGGUGCCAA,0.596
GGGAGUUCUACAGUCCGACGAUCACAGCACCUCAUGGGAUCAGAAAAGAGAAAGAUGUUGGCUCUUGUAAUAAAUGCUUUCUACCCUAUAGGUUCUAGGCUAGACAGAGUCGUCAUUUCUGUGUCCUCAAUUUUGGAAUUCUCGGGUGCCAA,0.359
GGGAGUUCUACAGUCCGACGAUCCGGGCAGCAUCGGGCUUCAUAGGUUCGUUGCUCUCCUGAGCUUUUUUGAUUCACUUGCUUUGUUUUCUGUUUUUUUUAAUAGCUAUUAUAAAGAGGUACAAUAAGCAGCUUGGAAUUCUCGGGUGCCAA,0.411
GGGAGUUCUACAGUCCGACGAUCGUUCUGCCUCUGCCUUGAUACUGCCUCAGGAUUCCCUAUCCCAUACCCUGGGAAAUUUGAGGGACCCCAAAAACUGAGGUCUCCUGCUUUCUCCAUAAUUUGGUCUCCUCUGGAAUUCUCGGGUGCCAA,0.837
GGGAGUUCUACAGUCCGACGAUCUUCUUAAGUUUUUUAUCUCCAGAUCCUAAUUUAUGCCUAUGCAAAAAAUAAAUGACGCCCAAGAGCUUGGGAUGUGGCUUUCAUGUGGCUUUUGCCUAUCACCUAGGGCAUGGAAUUCUCGGGUGCCAA,0.848
